Results gathered from unrelated publications.
“And” joins repeats or separate records; there may be more than shown. ± marks the error that the study gave.
Polyprotein P1234 nsP2 protease domain: Polyprotein P1234, nsP2 protease domain (Chikungunya virus, UniProt Q5XXP4)
Chain of UniProt Q5XXP4 (whole entry, looked up): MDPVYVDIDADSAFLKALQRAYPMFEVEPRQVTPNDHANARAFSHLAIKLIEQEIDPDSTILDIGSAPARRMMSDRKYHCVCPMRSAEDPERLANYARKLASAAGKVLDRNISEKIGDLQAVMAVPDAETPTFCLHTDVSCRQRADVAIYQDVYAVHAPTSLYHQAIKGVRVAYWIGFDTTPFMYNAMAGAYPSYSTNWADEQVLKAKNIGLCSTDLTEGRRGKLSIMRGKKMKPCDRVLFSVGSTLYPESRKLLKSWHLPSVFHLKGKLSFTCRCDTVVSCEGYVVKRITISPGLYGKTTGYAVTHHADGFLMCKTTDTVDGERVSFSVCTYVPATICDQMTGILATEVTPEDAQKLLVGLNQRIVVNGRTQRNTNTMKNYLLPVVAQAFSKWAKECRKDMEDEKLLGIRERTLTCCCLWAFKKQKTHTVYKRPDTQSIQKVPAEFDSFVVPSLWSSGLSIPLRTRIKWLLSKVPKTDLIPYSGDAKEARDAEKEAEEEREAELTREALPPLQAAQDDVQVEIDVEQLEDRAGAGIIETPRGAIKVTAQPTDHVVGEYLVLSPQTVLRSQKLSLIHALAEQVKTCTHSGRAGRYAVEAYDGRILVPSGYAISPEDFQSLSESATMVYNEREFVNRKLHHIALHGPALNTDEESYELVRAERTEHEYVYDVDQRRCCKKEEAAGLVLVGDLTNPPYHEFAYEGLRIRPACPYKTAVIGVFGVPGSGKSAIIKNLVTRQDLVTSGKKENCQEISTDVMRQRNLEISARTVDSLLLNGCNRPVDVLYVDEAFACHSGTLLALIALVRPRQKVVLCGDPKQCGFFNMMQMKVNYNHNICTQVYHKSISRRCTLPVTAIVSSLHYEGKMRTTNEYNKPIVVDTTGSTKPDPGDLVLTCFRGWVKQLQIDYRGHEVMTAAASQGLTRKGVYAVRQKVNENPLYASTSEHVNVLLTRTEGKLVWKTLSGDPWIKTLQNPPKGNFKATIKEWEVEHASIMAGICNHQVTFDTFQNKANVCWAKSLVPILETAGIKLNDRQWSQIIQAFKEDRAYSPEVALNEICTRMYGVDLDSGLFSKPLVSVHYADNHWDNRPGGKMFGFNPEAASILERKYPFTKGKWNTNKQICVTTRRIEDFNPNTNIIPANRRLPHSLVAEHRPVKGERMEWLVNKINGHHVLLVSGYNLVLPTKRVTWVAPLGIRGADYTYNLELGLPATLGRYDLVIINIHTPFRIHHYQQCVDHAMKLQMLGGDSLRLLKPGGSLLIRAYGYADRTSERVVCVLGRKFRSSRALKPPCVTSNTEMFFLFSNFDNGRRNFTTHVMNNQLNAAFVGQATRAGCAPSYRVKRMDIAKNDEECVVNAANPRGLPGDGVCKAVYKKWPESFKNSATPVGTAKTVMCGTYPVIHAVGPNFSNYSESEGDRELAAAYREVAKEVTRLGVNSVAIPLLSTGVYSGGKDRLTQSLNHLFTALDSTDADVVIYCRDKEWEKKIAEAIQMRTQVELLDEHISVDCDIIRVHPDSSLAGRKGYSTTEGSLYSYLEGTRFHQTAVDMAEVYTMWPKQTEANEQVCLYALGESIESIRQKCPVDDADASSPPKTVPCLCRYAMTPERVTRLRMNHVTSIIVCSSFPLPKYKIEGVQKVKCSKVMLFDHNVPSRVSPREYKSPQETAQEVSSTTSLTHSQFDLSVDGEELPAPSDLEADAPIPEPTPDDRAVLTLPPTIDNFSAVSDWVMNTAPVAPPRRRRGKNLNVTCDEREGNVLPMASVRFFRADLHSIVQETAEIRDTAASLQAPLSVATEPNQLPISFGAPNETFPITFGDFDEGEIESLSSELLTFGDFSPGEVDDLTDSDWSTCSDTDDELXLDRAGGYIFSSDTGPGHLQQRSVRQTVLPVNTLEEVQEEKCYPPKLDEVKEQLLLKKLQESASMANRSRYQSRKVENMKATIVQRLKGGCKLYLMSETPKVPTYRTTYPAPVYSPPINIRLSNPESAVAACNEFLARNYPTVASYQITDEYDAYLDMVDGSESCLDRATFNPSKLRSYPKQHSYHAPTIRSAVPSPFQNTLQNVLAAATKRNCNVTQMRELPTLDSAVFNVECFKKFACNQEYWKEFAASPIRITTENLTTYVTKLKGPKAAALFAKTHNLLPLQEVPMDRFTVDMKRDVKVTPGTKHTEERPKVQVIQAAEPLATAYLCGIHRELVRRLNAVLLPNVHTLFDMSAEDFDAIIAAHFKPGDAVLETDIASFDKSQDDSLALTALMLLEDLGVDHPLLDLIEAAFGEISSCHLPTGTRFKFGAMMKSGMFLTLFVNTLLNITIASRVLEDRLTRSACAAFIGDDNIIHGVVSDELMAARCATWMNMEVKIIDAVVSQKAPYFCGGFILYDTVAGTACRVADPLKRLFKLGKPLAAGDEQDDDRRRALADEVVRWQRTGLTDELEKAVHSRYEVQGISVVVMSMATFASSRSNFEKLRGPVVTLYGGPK
nanI: Sialidase (nanI, Clostridium perfringens, UniProt A0A0H2YQR1)
HLA class I histocompatibility antigen, A alpha chain allele A*11:01: HLA class I histocompatibility antigen, A alpha chain, allele A*11:01 (Homo sapiens, UniProt P04439)
Chain of UniProt Q81Y92 (whole entry, looked up): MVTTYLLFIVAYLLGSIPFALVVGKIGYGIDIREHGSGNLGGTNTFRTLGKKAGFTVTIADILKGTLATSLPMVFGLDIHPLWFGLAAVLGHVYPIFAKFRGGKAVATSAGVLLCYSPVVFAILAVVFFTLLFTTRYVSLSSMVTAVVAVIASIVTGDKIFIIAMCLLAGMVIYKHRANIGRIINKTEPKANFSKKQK
Chain of UniProt P15423 (whole entry, looked up): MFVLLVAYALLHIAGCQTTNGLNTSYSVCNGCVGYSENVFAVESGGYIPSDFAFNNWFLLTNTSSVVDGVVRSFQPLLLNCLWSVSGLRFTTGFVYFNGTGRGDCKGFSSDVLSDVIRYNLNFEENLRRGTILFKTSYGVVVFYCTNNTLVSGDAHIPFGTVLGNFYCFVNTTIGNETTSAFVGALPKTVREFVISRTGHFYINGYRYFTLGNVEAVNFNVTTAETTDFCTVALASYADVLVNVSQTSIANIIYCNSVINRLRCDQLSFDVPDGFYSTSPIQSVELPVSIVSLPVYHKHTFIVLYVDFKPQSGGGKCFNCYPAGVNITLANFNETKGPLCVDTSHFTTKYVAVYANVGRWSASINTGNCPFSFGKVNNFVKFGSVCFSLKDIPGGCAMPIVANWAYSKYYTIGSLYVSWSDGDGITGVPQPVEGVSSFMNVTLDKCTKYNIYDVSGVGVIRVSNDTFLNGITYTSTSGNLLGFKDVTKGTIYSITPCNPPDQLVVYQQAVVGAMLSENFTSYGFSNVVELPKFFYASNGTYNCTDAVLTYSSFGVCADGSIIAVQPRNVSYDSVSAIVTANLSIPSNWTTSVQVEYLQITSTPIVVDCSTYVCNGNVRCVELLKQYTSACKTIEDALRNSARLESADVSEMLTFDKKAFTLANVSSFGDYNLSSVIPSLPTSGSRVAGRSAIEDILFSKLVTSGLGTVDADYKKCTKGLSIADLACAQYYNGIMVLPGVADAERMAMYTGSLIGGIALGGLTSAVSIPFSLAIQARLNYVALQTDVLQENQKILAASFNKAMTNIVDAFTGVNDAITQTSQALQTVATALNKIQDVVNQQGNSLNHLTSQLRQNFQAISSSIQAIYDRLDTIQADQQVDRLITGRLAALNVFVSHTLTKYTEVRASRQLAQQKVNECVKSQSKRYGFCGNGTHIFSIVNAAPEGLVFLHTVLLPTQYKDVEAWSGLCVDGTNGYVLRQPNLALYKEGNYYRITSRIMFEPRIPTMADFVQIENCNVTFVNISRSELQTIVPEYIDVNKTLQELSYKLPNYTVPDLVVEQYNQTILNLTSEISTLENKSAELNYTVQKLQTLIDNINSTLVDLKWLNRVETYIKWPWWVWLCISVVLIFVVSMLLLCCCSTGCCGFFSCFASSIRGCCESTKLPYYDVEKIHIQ
Chain of UniProt P11712 (whole entry, looked up): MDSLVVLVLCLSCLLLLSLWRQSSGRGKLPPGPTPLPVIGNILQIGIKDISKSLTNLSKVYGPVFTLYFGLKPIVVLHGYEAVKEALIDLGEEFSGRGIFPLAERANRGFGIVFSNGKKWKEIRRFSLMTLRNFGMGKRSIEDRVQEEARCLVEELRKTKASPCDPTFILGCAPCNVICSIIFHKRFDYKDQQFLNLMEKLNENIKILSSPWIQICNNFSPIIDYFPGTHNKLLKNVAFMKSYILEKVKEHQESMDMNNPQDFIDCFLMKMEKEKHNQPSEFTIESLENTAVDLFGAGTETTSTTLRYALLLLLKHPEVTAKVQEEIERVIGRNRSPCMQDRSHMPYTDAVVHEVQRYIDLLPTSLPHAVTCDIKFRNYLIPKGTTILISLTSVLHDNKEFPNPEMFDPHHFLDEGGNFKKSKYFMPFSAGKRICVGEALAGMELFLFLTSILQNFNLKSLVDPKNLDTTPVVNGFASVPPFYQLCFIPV
Chain of UniProt A0A7H0DNC1 (whole entry, looked up): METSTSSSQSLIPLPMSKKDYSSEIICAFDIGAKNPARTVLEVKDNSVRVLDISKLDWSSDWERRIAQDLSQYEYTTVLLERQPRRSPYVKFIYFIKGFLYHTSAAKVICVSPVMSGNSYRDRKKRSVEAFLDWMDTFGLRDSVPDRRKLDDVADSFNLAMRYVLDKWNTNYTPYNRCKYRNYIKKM

CC(C)[C@H](NC(=O)[C@@H](NC(=O)[C@H](CC(=O)O)NC(=O)[C@H](CO)NC(=O)[C@@H](N)CCC(N)=O)[C@@H](C)O)C(=O)N[C@@H](Cc1ccccc1)C(=O)N[C@@H](CC(=O)O)C(=O)N[C@@H](Cc1ccc(O)cc1)C(=O)N[C@@H](Cc1ccc(O)cc1)C(=O)O
IC50 (HLA class I histocompatibility antigen, A alpha chain, allele A*30:02 (Homo sapiens, UniProt P04439); biochemical): 322 nM

CCC(C(=O)Nc1cc(NC2CCOC2)ccc1C)n1cc(Cl)cc2nc(SCc3ccc(F)cc3)nc1-2 (stereo not shown)
IC50 (Replicase polyprotein 1ab, papain-like protease (rep, Severe acute respiratory syndrome-related coronavirus, UniProt P0C6X7); enzyme activity): 174 ± 29 nM

Cn1cnc(Cn2c(=O)[nH]/c(=N\c3cc4cn(C)nc4cc3Cl)n(Cc3cc(F)c(F)cc3F)c2=O)n1
IC50 (Cytochrome P450 2C9 (CYP2C9, Homo sapiens, UniProt P11712); inhibitor; human liver microsomes; 30 min preincubation, preincubation without NADPH, together with: diclofenac 12 µM): > 100000 nM

O=c1cc(-c2ccc(O)cc2)oc2cc(O)c(O)c(O)c12
IC50 (Replicase polyprotein 1ab, main protease (rep, Severe acute respiratory syndrome-related coronavirus, UniProt P0C6X7); enzyme activity, inhibitor): 16400 nM

CC[C@H](C)[C@H](NC(=O)[C@H](CC(=O)O)NC(=O)[C@H](CCCCN)NC(=O)[C@H](CC(C)C)NC(=O)[C@H](CC(N)=O)NC(=O)[C@@H](NC(=O)[C@H](Cc1ccc(O)cc1)NC(=O)[C@H](CO)NC(=O)[C@H](CCC(N)=O)NC(=O)[C@H](CCC(=O)O)NC(=O)[C@H](CC(C)C)NC(=O)[C@H](CCCCN)NC(=O)[C@H](CCCCN)NC(=O)[C@@H](NC(=O)[C@H](C)NC(=O)[C@H](CCC(=O)O)NC(=O)[C@H](CCC(=O)O)NC(=O)[C@H](CC(C)C)NC(=O)[C@H](CCCCN)NC(=O)[C@H](CCCCN)NC(=O)[C@H](CCSC)NC(=O)[C@H](CCC(=O)O)NC(=O)[C@H](CC(=O)O)NC(=O)[C@H](CCC(N)=O)NC(=O)[C@H](CC(C)C)NC(=O)[C@H](CC(=O)O)NC(=O)[C@H](CC(C)C)NC(=O)[C@H](Cc1ccccc1)NC(=O)[C@@H](NC(=O)[C@@H](NC(=O)[C@H](CC(N)=O)NC(=O)[C@@H](NC(=O)[C@H](Cc1ccc(O)cc1)NC(=O)[C@H](CC(=O)O)NC(=O)[C@H](CC(C)C)NC(=O)[C@@H](N)CO)[C@@H](C)CC)C(C)C)[C@@H](C)O)[C@@H](C)CC)[C@@H](C)CC)C(=O)O
IC50 (Spike glycoprotein (S, Human coronavirus 229E, UniProt P15423)): 300 ± 50 nM

CSc1ccc(CN(C)C(=O)CCl)cc1
IC50 (Polyprotein P1234 nsP2 protease domain; protease activity, inhibitor, FRET; 90 min, 30 min preincubation): 49000 ± 7000 nM

O=c1c(-c2ccccc2)c(O)c2cc(-c3cccc(-c4ccccc4)c3)cnc2n1O
IC50 (Resolvase OPG149 (OPG149, Vaccinia virus, UniProt Q80HV3)): 478 nM

CCCCCCCCCCCCCCCC(=O)C(F)(F)P(=O)(O)O
IC50 (Glycerol-3-phosphate acyltransferase 3 (plsY3, Bacillus anthracis, UniProt Q81Y92); inhibitor): 50000 nM

CC(C)(C)NC(=O)N[C@H](C(=O)N1C[C@H]2[C@@H]([C@H]1C(=O)NC(CC1CCC1)C(=O)C(N)=O)C2(C)C)C(C)(C)C (stereo partly shown)
IC50 (Cathepsin B (CTSB, Homo sapiens, UniProt P07858); inhibitor): 3040 nM

COC(=O)c1ccccc1NC(=O)c1noc2c1CCC2
IC50 (Replicase polyprotein 1ab, nsp13 helicase (rep, Severe acute respiratory syndrome coronavirus 2, UniProt P0DTD1); helicase ATPase activity, inhibitor, Kinase-Glo luminescence): > 150000 nM

CC(C)C[C@H](NC(=O)[C@H](Cc1ccc(O)cc1)NC(=O)[C@H](CC(=O)O)NC(=O)[C@@H](NC(=O)[C@H](CCCCN)NC(=O)[C@H](Cc1ccc(O)cc1)NC(=O)[C@H](CO)NC(=O)[C@H](CC(C)C)NC(=O)[C@@H](N)C(C)C)C(C)C)C(=O)O
IC50 (HLA class I histocompatibility antigen, B alpha chain, allele B*08:01 (Homo sapiens, UniProt P01889); biochemical): 445 nM

CC(C)CNC(=O)N[C@H]1[C@H]([C@H](O)[C@H](O)CO)OC(C(=O)O)=C[C@@H]1O
IC50 (nanI; enzyme activity, inhibitor): > 500000 nM

O=C1Cc2cc(-c3ccco3)ccc2C(=O)N1O
IC50 (Resolvase OPG149 (OPG149, Monkeypox virus, UniProt A0A7H0DNC1)): 87 nM

C=CC(=O)N1CCC2(CC1)CC(C(=O)O)CO2 (stereo not shown)
IC50 (Polyprotein P1234 nsP2 protease domain; protease activity, inhibitor, FRET; 90 min, 30 min preincubation): 41000 ± 24000 nM

CC[C@H](C)[C@H](NC(=O)[C@H](C)NC(=O)CNC(=O)[C@H](CO)NC(=O)[C@H](CO)NC(=O)[C@@H](NC(=O)[C@@H](N)C(C)C)[C@@H](C)O)C(=O)N[C@@H](Cc1ccc(O)cc1)C(=O)N[C@@H](CCCCN)C(=O)O
IC50 (HLA class I histocompatibility antigen, A alpha chain allele A*11:01; biochemical): 3.1 nM

C=CS(=O)(=O)CCC(=O)Nc1c(C)nsc1C
IC50 (Polyprotein P1234 nsP2 protease domain; protease activity, inhibitor, FRET; 90 min, 30 min preincubation): 17000 ± 1000 nM

CCC(C(=O)Nc1ccccc1C)n1cc(F)cc2nc(SCc3ccc(F)cc3)nc1-2 (stereo not shown)
IC50 (Replicase polyprotein 1ab, papain-like protease (rep, Middle East respiratory syndrome-related coronavirus, UniProt K9N7C7); enzyme activity, inhibitor): > 100000 nM

CC(C)C[C@H](NC(=O)[C@H](CO)NC(=O)[C@H](CC(C)C)NC(=O)[C@@H]1CCCN1C(=O)[C@H](CO)NC(=O)CNC(=O)[C@H](CC(C)C)NC(=O)[C@@H](N)CCCNC(=N)N)C(=O)O
IC50 (HLA class I histocompatibility antigen, B alpha chain (Homo sapiens, UniProt P01889); binding, competitor): 23400 nM

CCC(CC)[C@H](NC(C)=O)[C@@H]1[C@H](O)[C@@H](C(=O)O)C[C@H]1N=C(N)N
IC50 (neuraminidase (Influenza A virus, UniProt G1FHY4)): 0.85 nM

CC(C)C[C@H](NC(=O)[C@H](CO)NC(=O)[C@@H](NC(=O)[C@@H](N)Cc1ccc(O)cc1)[C@@H](C)O)C(=O)N[C@@H](CC(=O)O)C(=O)N[C@H](C(=O)N[C@@H](Cc1ccc(O)cc1)C(=O)NCC(=O)N[C@@H](CO)C(=O)O)C(C)C
IC50 (HLA class I histocompatibility antigen, A alpha chain allele A*11:01; biochemical): 231 nM

CCC(C(=O)Nc1ccccc1C)n1cccc2nc(SCc3ccc(OC)cc3)nc1-2 (stereo not shown)
IC50 (Replicase polyprotein 1ab, papain-like protease (rep, Middle East respiratory syndrome-related coronavirus, UniProt K9N7C7); enzyme activity, inhibitor): > 100000 nM

O=C(CCl)NC(=O)NCCc1cccs1
IC50 (Polyprotein P1234 nsP2 protease domain; enzyme activity, inhibitor, FRET; 90 min, 30 min preincubation): 18000 ± 1000 nM

CC[C@H](C)[C@H](NC(=O)[C@H](CC(=O)O)NC(=O)[C@@H](N)C(C)C)C(=O)N[C@@H](CC(N)=O)C(=O)N[C@@H](CCCNC(=N)N)C(=O)N[C@@H](CC(N)=O)C(=O)N[C@@H](CC(N)=O)C(=O)N[C@@H](CCCCN)C(=O)N[C@@H](Cc1ccccc1)C(=O)O
IC50 (HLA class I histocompatibility antigen, A alpha chain, allele A*23:01 (Homo sapiens, UniProt P04439); biochemical): 2260 nM

CCC(C(=O)Nc1cc(NC2CNC2)ccc1C)n1cc(F)cc2nc(SCc3ccc(F)cc3)nc1-2 (stereo not shown)
IC50 (Replicase polyprotein 1ab, papain-like protease (rep, Middle East respiratory syndrome-related coronavirus, UniProt K9N7C7); enzyme activity, inhibitor): > 100000 nM

CC(C)[C@H](N)C(=O)N[C@H](C(=O)N[C@@H](CC(=O)O)C(=O)N[C@H](C(=O)N[C@@H](CC(N)=O)C(=O)N[C@@H](CCCCN)C(=O)N[C@@H](Cc1ccccc1)C(=O)N[C@@H](C)C(=O)N[C@@H](Cc1c[nH]cn1)C(=O)N[C@@H](Cc1ccc(O)cc1)C(=O)O)[C@@H](C)O)[C@@H](C)O
IC50 (HLA class I histocompatibility antigen, A alpha chain, allele A*01:01 (Homo sapiens, UniProt P04439); biochemical): 3.4 nM

CCC(C(=O)Nc1cc(NC2CCNC2)ccc1C)n1cc(Br)cc2nc(SCc3ccc(F)cc3)nc1-2 (stereo not shown)
IC50 (Replicase polyprotein 1ab, papain-like protease (rep, Middle East respiratory syndrome-related coronavirus, UniProt K9N7C7); enzyme activity, inhibitor): > 100000 nM

CC(C)(C)c1cn([C@H]2[C@H]([C@H](O)[C@H](O)CO)OC(C(=O)O)=C[C@@H]2O)nn1
IC50 (nanI; enzyme activity, inhibitor): 270000 nM

COc1cccc(-c2nc(C(=O)NCC=CS(C)(=O)=O)c(C)[nH]2)c1
IC50 (Polyprotein P1234 nsP2 protease domain; protease activity, inhibitor, FRET; 90 min, 30 min preincubation): 590 nM and < 1500 nM

CCC(CC)[C@H](NC(C)=O)[C@@H]1[C@H](O)[C@@H](C(=O)O)C[C@H]1N=C(N)N
IC50 (Neuraminidase (Influenza A virus, UniProt L0MUX9); enzyme activity, inhibitor; swine influenza A virus, N2 subtypes average): 0.14 nM

CCC(C(=O)Nc1ccccc1C)n1cccc2nc(SCc3ccccc3F)nc1-2 (stereo not shown)
IC50 (Replicase polyprotein 1ab, papain-like protease (rep, Severe acute respiratory syndrome-related coronavirus, UniProt P0C6X7); enzyme activity): 3550 ± 220 nM

O=C(N1CCC2(CC1)C[C@H](CN1CCCCS1(=O)=O)CCO2)C1(c2ccccc2)CCCC1
IC50 (Polyprotein P1234, nsP2 (Chikungunya virus, UniProt Q8JUX6); nsP2 RNA unwinding, inhibitor, FRET strand separation): 130 nM

A few entries again:
COC(=O)c1ccccc1NC(=O)c1noc2c1CCC2
IC50 (Replicase polyprotein 1ab, nsp13 helicase (rep, Severe acute respiratory syndrome coronavirus 2, UniProt P0DTD1); helicase ATPase activity, inhibitor, Kinase-Glo luminescence): > 150000 nM

CC(C)C[C@H](NC(=O)[C@H](Cc1ccc(O)cc1)NC(=O)[C@H](CC(=O)O)NC(=O)[C@@H](NC(=O)[C@H](CCCCN)NC(=O)[C@H](Cc1ccc(O)cc1)NC(=O)[C@H](CO)NC(=O)[C@H](CC(C)C)NC(=O)[C@@H](N)C(C)C)C(C)C)C(=O)O
IC50 (HLA class I histocompatibility antigen, B alpha chain, allele B*08:01 (Homo sapiens, UniProt P01889); biochemical): 445 nM

CC(C)CNC(=O)N[C@H]1[C@H]([C@H](O)[C@H](O)CO)OC(C(=O)O)=C[C@@H]1O
IC50 (nanI; enzyme activity, inhibitor): > 500000 nM
